Measured values pooled from the literature.
Each line is one published result; not all experiments were run side by side. ± gives the spread as reported.

Under “affinity enhancement over galactose”, `O=C(O)c1cccc(-c2ccccc2O[C@@H]2O[C@H](CO)[C@H](O)[C@H](O)[C@H]2O)c1` is recorded as roughly 330 fold (Adhesin FmlH, lectin domain (Escherichia coli, UniProt Q1RBS0); inhibitor, competitive bio-layer interferometry; UPEC UTI89; together with: immobilized Ser-TF; reference: compound over galactose).
Under “dissociation rate constant”, `CNc1ccccc1C(=O)O[C@H]1C[C@H](n2cnc3c(N)ncnc32)O[C@@H]1COP(=O)(O)OP(=O)(O)O` is recorded as 1.7 ± 0.01 s⁻¹ (Unconventional myosin-Va (Gallus gallus, UniProt Q02440, D297C/G292C/I296C/S293C/V295G); stopped-flow FRET; 10 °C, together with: MgCl2 2 mM).
`CO[C@@H]1O[C@H](CO)[C@@H](O[C@H]2O[C@H](CO)[C@@H](OP(=O)(O)O)[C@H](OP(=O)(O)O)[C@H]2O)[C@H]1OP(=O)(O)O` gave a delta pKd of 1.33 ± 0.24 (Inositol 1,4,5-trisphosphate-gated calcium channel ITPR1, N-terminal region (Itpr1, Rattus norvegicus, UniProt P29994, del318-332/R504Q); [3H]IP3 competition binding; N-terminal fragment; Tris-EDTA medium, unit not given; reference: R504Q minus wild type).
`NC(=O)CN1C(=O)C(O)(CC(=O)c2cccc(N)c2)c2ccccc21` (stereo not drawn) gave a melting temperature of 65.1 °C (uncharacterized protein (Leishmania donovani, UniProt A0A3Q8IA09); Tyr fluorescence thermal shift; 100 µM).
The wavelength shift of `CC(=O)[O-].O.O.O.O.[Co+2].[O-]c1ccc(Br)cc1C=NCCN1CCOCC1` is reported as 7 nm (Albumin (ALB, Bos taurus, UniProt P02769); absorption titration; 25 °C, blue shift of BSA band; reference: bound over free).
`CC(C)CCC[C@@H](C)[C@H]1CC[C@H]2[C@@H]3CC=C4C[C@@H](OS(=O)(=O)O)CC[C@]4(C)[C@H]3CC[C@]12C` gave a maximal inhibition of 83.5 ± 5.1% (Prothrombin (F2, Homo sapiens, UniProt P00734); enzyme activity, inhibitor; together with: unfractionated heparin 0 µM).
With `O=c1cc(-c2ccc(O)c(O)c2)oc2cc(O[C@@H]3O[C@H](CO)[C@@H](O)[C@H](O)[C@H]3O)cc(O)c12` the inhibitory concentration was less than 0.9 µM (Dopamine beta-hydroxylase (Homo sapiens, UniProt P09172); inhibitor; together with: tyramine).
`C[n+]1cn(C2OC(COP(=O)([O-])OP(=O)(O)OP(=O)(O)OCC3OC(n4cnc5c(=O)[nH]c(N)nc54)C(O)C3O)C(O)C2O)c2nc(NCc3cc(-c4ccccc4)no3)[nH]c(=O)c21` (stereo not drawn) has a cap hydrolysis of 33.2% (NUDT16 (Homo sapiens, UniProt Q96DE0); decapping, substrate; capped RNA transcribed by SP6 polymerase; concentration not given, 30 min).
For `Cc1ccccc1-c1cc(N2CCN(C(=O)CCC(=O)O)CC2)ccc1N(C)C(=O)C(C)(C)c1cc(C(F)(F)F)cc(C(F)(F)F)c1`, “inhibition rate constant” read 0.11 ± 0.01 min⁻¹ (TACR1 (Homo sapiens, UniProt P25103); antagonist, BRET; HEK293T; 10 µM, together with: substance P, added 5 min before).

Repeated from above:
The wavelength shift of `CC(=O)[O-].O.O.O.O.[Co+2].[O-]c1ccc(Br)cc1C=NCCN1CCOCC1` is reported as 7 nm (Albumin (ALB, Bos taurus, UniProt P02769); absorption titration; 25 °C, blue shift of BSA band; reference: bound over free).
